{"data": "Published values pooled from the literature", "Protein farnesyltransferase": "Protein farnesyltransferase (Homo sapiens, UniProt P49354+P49356)", "CXCR4": "C-X-C chemokine receptor type 4 (CXCR4, Homo sapiens, UniProt P61073)", "SLC10A1": "Hepatic sodium/bile acid cotransporter (SLC10A1, Homo sapiens, UniProt Q14973)", "UGT1A9": "UDP-glucuronosyltransferase 1A9 (UGT1A9, Homo sapiens, UniProt O60656)", "T1": "RNA aptamer A45C/A49U/C71U; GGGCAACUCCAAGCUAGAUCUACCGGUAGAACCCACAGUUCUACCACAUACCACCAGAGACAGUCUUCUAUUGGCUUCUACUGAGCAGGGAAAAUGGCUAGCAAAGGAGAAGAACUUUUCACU", "B1": "side-chain stapled; chain AACVSFQNLDCG (also: sidechain bridge or staple (positions not given here))", "note": "Lines come from different studies, so protocols differ. ± gives the spread as reported. Where no end group is shown, it is not given here."}
{"Substance": "CMEL", "target": "Protein farnesyltransferase", "assay": "enzyme activity, substrate, fluorimetric", "system": "peptide", "conditions": "3 µM, 30 min, with: 9 µM farnesyl diphosphate", "scale": "baseline: dansyl-GCVLS (set to 1.0)", "quantity": "relative fluorescence increase", "value": 0}
{"Substance": "N.N.N.N.O=P(O)(O)OP(=O)(O)OP(=O)(O)OC[C@H]1O[C@@H](n2cnc3c(NC4CCCC4)ncnc32)[C@H](O)[C@@H]1O", "target": "GPR17 (Homo sapiens, UniProt Q13304)", "assay": "frontal affinity chromatography-MS", "system": "immobilized on IAM column", "conditions": "1 µM, compound mixture", "quantity": "breakthrough time", "value": "12.2 min"}
{"Substance": "CCC/C=C\\C=O", "target": "Chilo suppressalis CSP2", "assay": "binding, competitive ligand, fluorescence competitive binding", "conditions": "highest concentration tested, pH 7.4, protein 2 µM, with: 1-NPN 2 µM", "scale": "baseline: no ligand", "quantity": "remaining 1-NPN fluorescence", "value": "49.1 ± 1.64%"}
{"Substance": "N[C@@H](CCCC=O)C(=O)O", "target": "Alpha-aminoadipic semialdehyde dehydrogenase, W175A (ALDH7A1, Homo sapiens, UniProt P49419)", "assay": "substrate, NADH production", "conditions": "pH 8.0, 20 °C, with: 2.5 mM NAD+", "quantity": "Km", "value": "1430 ± 204 µM"}
{"Substance": "COc1cc2c(NC3CCN(CCCC(=O)NCCCC(=O)N[C@H](C(=O)N4C[C@H](O)C[C@H]4C(=O)NCc4ccc(-c5scnc5C)cc4)C(C)(C)C)CC3)nc(N3CCC(F)(F)CC3)nc2cc1OCCCN1CCCC1", "target": "EHMT2 (Homo sapiens, UniProt Q96KQ7)", "assay": "degrader, western blot", "conditions": "0.3 µM, 24 h", "scale": "baseline: DMSO", "quantity": "degradation", "value": "< 8%"}
{"Substance": "CN(Cc1cccc(CN(C)c2ccccc2)n1)c1ccccc1", "target": "CXCR4", "assay": "binding, competition binding", "system": "MDA-MB-231", "conditions": "semi-quantitative screen, with: biotinylated TN14003", "quantity": "lowest effective concentration", "value": "1000 nM"}
{"Substance": "O=C(Nc1cnccc1Cl)N1CCN(Cc2ccc3c(c2)OC(F)(F)O3)CC1", "target": "FAAH (Homo sapiens, UniProt O00519)", "system": "human, leukocytes", "conditions": "oral, 10 to 100 mg once daily, 10 days, mean trough, with: [3H]-anandamide", "scale": "baseline: predose", "quantity": "remaining activity", "value": "0.58 to 10.5%"}
{"Substance": "CCOC(=O)C1=C[C@@H](OC(CC)CC)[C@H](NC(C)=O)[C@@H](N)C1", "target": "SLC10A1", "assay": "inhibitor", "system": "HEK293 expressing NTCP", "conditions": "100 µM, 5 min, with: taurocholate 10 µM", "scale": "baseline: no compound", "quantity": "taurocholate uptake", "value": "102 ± 9%"}
{"Substance": "CN(Cc1cccc(CN(C)Cc2ccccc2F)n1)Cc1ccccc1F", "target": "CXCR4", "assay": "binding, competition binding", "system": "MDA-MB-231", "conditions": "semi-quantitative screen, with: biotinylated TN14003", "quantity": "lowest effective concentration", "value": "1000 nM"}
{"Substance": "CC(C)OC(=O)C(C)(C)Oc1ccc(C(=O)c2ccc(Cl)cc2)cc1", "target": "SLC10A1", "assay": "inhibitor", "system": "HEK293 expressing NTCP", "conditions": "100 µM, 5 min, with: taurocholate 10 µM", "scale": "baseline: no compound", "quantity": "taurocholate uptake", "value": "76.3 ± 6%"}
{"Substance": "O=C(CCn1c2ccccc2c2ccccc21)N(c1ccc(F)cc1)c1ccc(F)cc1", "target": "Proteasome subunit alpha type-2/Proteasome subunit alpha type-6, 20S proteasome (Homo sapiens, UniProt P25787+P60900)", "assay": "proteolysis, activator, fluorogenic peptide", "system": "purified 20S proteasome", "conditions": "up to 30 µM, with: Suc-LLVY-AMC, Z-LLE-AMC, Boc-LRR-AMC", "scale": "baseline: vehicle", "quantity": "maximum fold increase", "value": 5.8}
{"Substance": "CC[C@H](C)[C@H](NC(=O)[C@H](Cc1c[nH]cn1)NC(=O)[C@H](CC(=O)O)NC(=O)[C@H](C)NC(=O)[C@H](CC(C)C)NC(=O)[C@@H](NC(=O)[C@@H](NC(=O)[C@H](CC(C)C)NC(=O)[C@H](CCCNC(=N)N)NC(=O)[C@H](Cc1c[nH]cn1)NC(=O)[C@@H](NC(=O)[C@H](CCCNC(=N)N)NC(=O)[C@@H]1CCCN1C(=O)[C@@H](NC(=O)[C@H](CCC(N)=O)NC(=O)CN)C(C)C)[C@@H](C)O)[C@@H](C)CC)[C@@H](C)O)C(=O)N[C@@H](CS)C(=O)N[C@@H](CCC(N)=O)C(=O)N[C@H](C(=O)N[C@H](C(=O)N[C@H](C(=O)N[C@@H](CCC(N)=O)C(=O)N[C@@H](CC(=O)O)C(=O)N[C@@H](Cc1ccccc1)C(=O)N[C@@H](C)C(=O)N[C@@H](CCCNC(=N)N)C(=O)O)[C@@H](C)O)[C@@H](C)CC)[C@@H](C)CC", "target": "NR1D1 (Homo sapiens, UniProt P20393)", "assay": "NCoR peptide binding, competitor, TR-FRET", "conditions": "1 h, with: labelled NCoR 2040-2065 peptide", "scale": "baseline: mutant over wild-type peptide", "quantity": "IC50 fold change", "value": 0}
{"Substance": "CVGL", "target": "Protein farnesyltransferase", "assay": "enzyme activity, substrate, fluorimetric", "system": "peptide", "conditions": "3 µM, 30 min, with: 9 µM farnesyl diphosphate", "scale": "baseline: dansyl-GCVLS (set to 1.0)", "quantity": "relative fluorescence increase", "value": 0}
{"Substance": "Cc1ncsc1-c1ccc(CNC(=O)[C@@H]2C[C@@H](O)CN2C(=O)[C@@H](NC(=O)CCCCCCCCCCNC(=O)O[C@H]2C[C@@H](C)C=C3C=C[C@H](C)[C@H](CC[C@@H]4C[C@@H](O)CC(=O)O4)[C@H]32)C(C)(C)C)cc1", "target": "HMGCR (Homo sapiens, UniProt P04035)", "assay": "Western blot", "system": "HepG2", "conditions": "1 µM, 16 h", "scale": "baseline: untreated control", "quantity": "remaining protein level", "value": "42%"}
{"Substance": "N#Cc1c(O)c2c(-c3ccc(-c4ccccc4O)cc3)csc2[nH]c1=O", "target": "UGT1A9", "assay": "substrate", "conditions": "pH 7.4, 37 °C", "quantity": "Vmax", "value": "10.8 pmol/mg/min"}
{"Substance": "CHPL", "target": "Protein farnesyltransferase", "assay": "enzyme activity, substrate, fluorimetric", "system": "peptide", "conditions": "3 µM, 30 min, with: 9 µM farnesyl diphosphate", "scale": "baseline: dansyl-GCVLS (set to 1.0)", "quantity": "relative fluorescence increase", "value": 0}
{"Substance": "O=c1c(-c2ccc(O)cc2)coc2cc(O)cc(O)c12", "target": "UGT1A9", "assay": "substrate", "conditions": "pH 7.4, 37 °C", "quantity": "Vmax", "value": "1290 pmol/mg/min"}
{"Substance": "CC/C=C\\CCOC(C)=O", "target": "Chilo suppressalis CSP2", "assay": "binding, competitive ligand, fluorescence competitive binding", "conditions": "highest concentration tested, pH 7.4, protein 2 µM, with: 1-NPN 2 µM", "scale": "baseline: no ligand", "quantity": "remaining 1-NPN fluorescence", "value": "60.6 ± 3.27%"}
{"Substance": "C[N+](C)(C)CCOC(N)=O", "target": "Gi/o proteins", "assay": "[3H]GDP binding SPA", "system": "CHO cell membranes", "conditions": "100 µM, with: [3H]GDP 500 nM", "scale": "baseline: control mono-exponential fit", "quantity": "GDP association slowing", "value": "10 fold"}
{"Substance": "CCCCC(C(=O)COc1c(F)c(F)cc(F)c1F)n1cc(C2(N)CCN(C(N)=O)CC2)nn1 (stereo not drawn)", "target": "DPAP1 (Plasmodium falciparum, UniProt Q8IIJ9)", "assay": "inhibitor", "system": "parasite lysate", "conditions": "with: (Pro-Arg)2-rhodamine substrate", "quantity": "second-order inactivation rate constant", "value": "< 20 M⁻¹ s⁻¹"}
{"Substance": "O=[N+]([O-])c1ccc(Oc2ccccc2)c(O)c1", "target": "Enoyl-[acyl-carrier-protein] reductase [NADPH] FabI (Staphylococcus aureus, UniProt Q6GI75)", "assay": "enzyme activity, inhibitor, progress curve kinetics", "quantity": "dissociation rate constant", "value": "9.03 ± 6.58 h⁻¹"}
{"Substance": "Oc1c(Cl)cc(-c2cccc(Cl)c2)cc1Cl", "target": "SULT2A1 (Homo sapiens, UniProt Q06520)", "assay": "substrate, HPLC of PAP formation", "conditions": "substrate inhibition fit, with: PAPS 200 µM", "quantity": "Vmax", "value": "51800 ± 16300 pmol/mg/min"}
{"Substance": "CNc1nc(Cl)nc2c1ncn2[C@@H]1O[C@H](COP(=O)(O)OP(=O)(O)OP(=O)(O)O)[C@@H](O)[C@H]1O.N.N.N.N", "target": "Uracil nucleotide/cysteinyl leukotriene receptor, short isoform (GPR17, Homo sapiens, UniProt Q13304, R283I)", "assay": "frontal affinity chromatography-MS", "system": "mutated receptor IAM column", "conditions": "concentration not given", "scale": "baseline: wild type column", "quantity": "breakthrough time change", "value": "17.1%"}
{"Substance": "CCCCOc1cc(C(=O)NCCN(CC)CC)c2ccccc2n1", "target": "SLC10A1", "assay": "inhibitor", "system": "HEK293 expressing NTCP", "conditions": "100 µM, 5 min, with: taurocholate 10 µM", "scale": "baseline: no compound", "quantity": "taurocholate uptake", "value": "100 ± 1%"}
{"Substance": "OCc1ccccc1", "target": "Chilo suppressalis CSP2", "assay": "binding, competitive fluorescence displacement", "conditions": "30 µM, pH 7.4", "quantity": "fluorescence intensity", "value": "94.37 ± 0.12%"}
{"Substance": "CS(=O)(=O)c1ccc(-c2nn(-c3ccc(C#N)cc3)cc2C(=O)Nc2cccc(F)c2)cc1", "target": "ALDH1A2 (Homo sapiens, UniProt O94788)", "assay": "differential scanning fluorimetry", "conditions": "200 µM, with: NAD 1 mM", "quantity": "ΔTm", "value": "8.6 ± 0.07 °C"}
{"Substance": "CC(C(=O)O)c1cccc(C(=O)c2ccccc2)c1 (stereo not drawn)", "target": "SLC10A1", "assay": "inhibitor", "system": "HEK293 expressing NTCP", "conditions": "100 µM, 5 min, with: taurocholate 10 µM", "scale": "baseline: no compound", "quantity": "taurocholate uptake", "value": "84.6 ± 6.1%"}
{"Substance": "NC[C@@H]1O[C@H](O[C@H]2[C@@H](O)[C@H](O[C@@H]3[C@@H](O)[C@H](N)C[C@H](N)[C@H]3O[C@H]3O[C@H](CO)[C@@H](O)[C@H](O)[C@H]3N)O[C@@H]2CO)[C@H](N)[C@@H](O)[C@@H]1O", "target": "T1, RNA aptamer A45C/A49U/C71U", "assay": "ITC", "conditions": "25 °C, KCl 250 mM, one-site fit", "quantity": "Kd", "value": "10 nM"}
{"Substance": "O=C(CCCCCCC(=O)Nc1ccccc1)NO", "target": "HDAC8 (Homo sapiens, UniProt Q9BY41)", "assay": "ITC in four buffers", "conditions": "concentration not given, pH 7.5", "quantity": "protons released on binding", "value": "0.73 protons per ligand"}
{"Substance": "B1", "target": "DPP4 (Homo sapiens, UniProt P27487)", "assay": "enzyme activity", "conditions": "200 µM, 37 °C", "scale": "baseline: FAPα over DPP4", "quantity": "selectivity ratio", "value": "10 fold"}
{"Substance": "CCCCC(=O)N(Cc1ccc(-c2ccccc2-c2nnn[nH]2)cc1)[C@H](C(=O)O)C(C)C", "target": "SLC10A1", "assay": "inhibitor", "system": "HEK293 expressing NTCP", "conditions": "100 µM, 5 min, with: taurocholate 10 µM", "scale": "baseline: no compound", "quantity": "taurocholate uptake", "value": "101 ± 3%"}
{"Substance": "C[C@@H]1CC[C@H]2C(C)(C)[C@H]3C[C@@]12CC[C@@]3(C)O", "target": "Chilo suppressalis CSP2", "assay": "binding, competitive fluorescence displacement", "conditions": "30 µM, pH 7.4", "quantity": "fluorescence intensity", "value": "32.3 ± 2.74%"}
{"Substance": "Nc1c(N=Nc2ccc(S(=O)(=O)CCOS(=O)(=O)[O-])cc2)c(S(=O)(=O)[O-])cc2cc(S(=O)(=O)[O-])c(N=Nc3ccc(S(=O)(=O)CCOS(=O)(=O)[O-])cc3)c(O)c12.[Na+].[Na+].[Na+].[Na+]", "target": "ancestral DyP peroxidase wild type", "assay": "peroxidase activity, substrate", "conditions": "pH 4.0, 25 °C, pH 4.5 for Mn2+", "quantity": "Hill coefficient", "value": "~3"}
{"note": "Excerpt of the above:"}
{"Substance": "CC/C=C\\CCOC(C)=O", "target": "Chilo suppressalis CSP2", "assay": "binding, competitive ligand, fluorescence competitive binding", "conditions": "highest concentration tested, pH 7.4, protein 2 µM, with: 1-NPN 2 µM", "scale": "baseline: no ligand", "quantity": "remaining 1-NPN fluorescence", "value": "60.6 ± 3.27%"}
{"Substance": "C[N+](C)(C)CCOC(N)=O", "target": "Gi/o proteins", "assay": "[3H]GDP binding SPA", "system": "CHO cell membranes", "conditions": "100 µM, with: [3H]GDP 500 nM", "scale": "baseline: control mono-exponential fit", "quantity": "GDP association slowing", "value": "10 fold"}
